Assay results of several laboratories.
Protocols differ between the studies behind these lines. “And” joins repeats or separate records; there may be more than shown.
Target: Serine/threonine-protein kinase LATS2 (LATS2, Homo sapiens, UniProt Q9NRM7)

For `Cc1cccc(O[C@H]2CCC[C@@H](C(C)CNCc3ccncc3)C2)c1` (relative stereo), the inhibition was 1% (kinase activity, kinome panel screening; 1 µM).
`COc1c(Cl)cccc1Nc1c(-c2ccncc2C#C[C@@]2(C)CCCN2C(=O)/C=C/CN(C)C)[nH]c2c1C(=O)NCC2` has a remaining binding of 76% (binding, competition with immobilised ligand; 3 µM).
With `Cc1ccc(-c2c(/C=C(\C#N)C(=O)NC(C)C)n(CCCO)c3ncnc(N)c23)cc1` the remaining binding was 100% (cell-free assay, competition with immobilised ligand; 1 µM).
For `COc1cc(Nc2nc(C)cc(-c3cnn4nc(OC)ccc34)n2)cc(C(F)(F)F)c1`, the remaining activity was 71% (inhibitor; 1 µM; relative to: control).
For `CC(C)=CC1OC(C)(C)C2C=C3C(=O)C(Cl)=CC(O)C3C3C(O)C4OC4C(=O)C132` (stereo not shown), the remaining binding was 99% (cell-free assay, competition with immobilised ligand; 10 µM).
With `Nc1ncc2c(n1)-c1c([nH]c3ccc(C4=CCOCC4)cc13)CCC2` the remaining binding was 77% (binding, competition with immobilised ligand; 1 µM).
`C=CC(=O)Nc1cccc(-c2cnc3[nH]cc(C(=O)NC(C)(C)C)c3n2)c1` gave an inhibition of 5% and 4% (kinase activity; 0.1 µM).
With `CN1CCN(Cc2ccc(-c3ccc(CO[C@H]4CCC[C@@H]4NC(=O)c4cc(-c5cnn(C)c5)cnc4N)cc3)cc2)CC1` the inhibition was 7% (enzyme activity, inhibitor; 0.1 µM).
`NC(=O)C[C@H]1CCc2sc3ncnc(O[C@H]4CC[C@H](N5CCOCC5)CC4)c3c21` gave an inhibition of 12% (enzyme activity, inhibitor; 10 µM).
`CNC1C[S+]2CC[S+]3CC[S+](C1)[Ru-4]321([N]=C=S)[n]2c3ccc(OC)cc3c3c4c(c5cc(F)c[n+]1c5c32)C(=O)NC4=O` (stereo not shown) gave a remaining binding of 90% (KinomeScan; 0.1 µM; relative to: untreated).
For `CCn1cc(C(=O)O)c(=O)c2c(N)c(F)c(NC3CCCCC3)cc21`, the inhibition was -0.4% (kinase activity; 0.1 µM, together with: ATP at Km).
For `C=CC(=O)N1CCCC(n2c(=O)c3ncccc3n(Cc3ccc(Oc4ccccc4)cc3)c2=O)C1` (stereo not shown), the remaining binding was 77% (cell-free assay, competition with immobilised ligand; 1 µM).
Under “percent of control”, `Cc1cnc2nc1Nc1cccc(c1)COC/C=C/COCc1cc(ccc1OCCN1CCOCC1)N2` is recorded as 96% (concentration not given).
